Published values of several laboratories.
Numbered parts are unrelated; each lists some results of a single study.

Sample 1 — method: RNA Bind-n-Seq; molecule type: RNA; medium: in vitro; tested at: 200 nM; notes: whole 134-nt RNA, ends assumed; added: 150 mM LiCl; reference: input library; reading: higher = stronger binding; each molecule: 7-deaza-guanosine replaces G
Target: Fragile X messenger ribonucleoprotein 1, C-terminal low-complexity region (Fmr1, Mus musculus, UniProt P35922)
Sequence | log2 enrichment
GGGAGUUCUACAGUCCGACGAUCCAAGUCCUGUGCUACACAUCGUAUGUACCGAAUCGGAAAGGAAAAAGGAAAAAGGAAAGUAUUAUGUUACGCCGUUCGGAUCUGCACUUCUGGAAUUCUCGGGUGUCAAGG | -0.814
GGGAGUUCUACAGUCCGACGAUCUGGGAGGUGGAUUUUGUUUAUUUUUUUAGCUCAUUUCCAGGGGUGGGAAGUUUUUUUUAAUAUGUGUCAUGAAUAAAGUUGUUUUUGAAAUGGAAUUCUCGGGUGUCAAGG | 0.594
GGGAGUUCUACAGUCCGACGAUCCCUGUGCUACACAUCGUAUGUACCGAAUCGGGGAAAAAAGGGAAAAAAGGGAAAAAAGGGGAAAGUAUUAUGUUACGCCGUUCGGAUCUGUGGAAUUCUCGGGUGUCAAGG | 0.691
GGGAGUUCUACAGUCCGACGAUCGUCCUGUGCUACACAUCGUAUGUACCGAAUCGGCCCCCGGGCCCCCGGGCCCCCGGGGAAAGUAUUAUGUUACGCCGUUCGGAUCUGCACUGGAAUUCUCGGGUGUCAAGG | -2.51
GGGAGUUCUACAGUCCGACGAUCCACAGACAACACGCACCGACACAGACACAGAGGGAAGGGGUUGGGAUGGGGACAGGGUGCACAGCAGGGCGGGGUAGGACCCCAGCCCCUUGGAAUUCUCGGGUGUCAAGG | 1.03
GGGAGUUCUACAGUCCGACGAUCCAAGUCCUGUGCUACACAUCGUAUGUACCGAAUCGGAAAGGUUUGGAAAAAAAGGAAAGUAUUAUGUUACGCCGUUCGGAUCUGCACUUCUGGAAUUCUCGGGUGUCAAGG | -1.54
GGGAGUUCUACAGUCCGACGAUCCUGUGCUACACAUCGUAUGUACCGAAUCGGAAAAAAAGGGGAAAAAAAGGAAAAAAAGGGGAAAGUAUUAUGUUACGCCGUUCGGAUCUGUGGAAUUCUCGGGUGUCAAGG | -0.0603
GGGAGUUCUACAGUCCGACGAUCGCAGGAAGUAAAAACAAAUGGAAAUGCUUCGGAUAGUGGCAGGGGUGGGGGUUGCUAAGGAAAAAAUGGGAUGGGAGUGGGUAAAGAGUUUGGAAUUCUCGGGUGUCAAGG | 1.57

Sample 2 — method: RNA Bind-n-Seq; molecule type: RNA; medium: in vitro; tested at: not given; notes: RNA with constant flanks, ends assumed; reference: input RNA pool; reading: higher = stronger binding
Target: RING finger protein unkempt homolog, zinc fingers 1-6, GST-SBP tag (UNK, Homo sapiens, UniProt Q9C0B0, residues 30-357)
Chain of UniProt Q9C0B0 (30-357, looked up): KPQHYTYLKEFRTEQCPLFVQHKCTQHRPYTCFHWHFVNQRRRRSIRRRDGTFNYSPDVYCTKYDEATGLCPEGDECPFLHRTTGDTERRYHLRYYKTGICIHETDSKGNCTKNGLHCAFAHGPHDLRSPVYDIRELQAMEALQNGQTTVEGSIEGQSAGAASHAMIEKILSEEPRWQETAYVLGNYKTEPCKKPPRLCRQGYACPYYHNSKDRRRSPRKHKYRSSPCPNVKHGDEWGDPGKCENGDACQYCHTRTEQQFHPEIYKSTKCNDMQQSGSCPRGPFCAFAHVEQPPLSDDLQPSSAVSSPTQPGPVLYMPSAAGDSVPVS
Sequence | bound/input enrichment [ratio]
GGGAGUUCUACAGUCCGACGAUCACGGCCAUGGCAACUAGUCUCACGAAUGUAGGAAACUCAUUUAGUGGUCCAGCUAAUCCUUCCGUGUCUAGAUCUAAUAAGUUUCAGAACUCGUCAGUGGAAGAUGAUGAUGAUGUUGUUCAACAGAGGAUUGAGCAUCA | 1.59
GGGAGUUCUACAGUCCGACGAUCACACGAUGUUUUUUCAAGAUUUUAGACCCUUUCUAAGUAGCAGUCCACUGGACCAAGAUAACCGAGCCAAUGAAAGGGGUCACCAGACUCACACUGACUUCUGGGGAGCAAGACCUCCACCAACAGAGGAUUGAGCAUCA | 0.194
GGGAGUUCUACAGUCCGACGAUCGAAGUUGCAAGCAAUGUUCCAAAAGUUGUAGGUUCUGCUGUUGGUAGCGGGUCCAUUACCCGUAACAUCGUGGCUUCCAAUAGUUUGCCUCCAGCCACCAUUGCUCCUCCAAAACCAGCACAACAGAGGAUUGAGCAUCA | 0.334
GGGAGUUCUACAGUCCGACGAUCGUACUUGCUGUAGGAUUCAAGCUGUCUUUGCACUAGCUCUAAAGAAGAUUUUCUUCUGGUUUCCGAGAACUAAUUUUGUUUUAGCAUUAAACUGUUGAACUUUUUUUUGUACUUAGAAAACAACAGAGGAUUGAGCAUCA | 0.366
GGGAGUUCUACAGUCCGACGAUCAUUGAGUGGGGAGCUUGUGCACUUGUUCUCACAGGAAACACAGUCAUCUUUGCAACUAUACCCGGCUUUUUCUUGGUCUUUGGAAGCAAUGACGACUUCAGCUGGCAGCAGUGGUGAAAACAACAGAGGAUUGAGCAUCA | 0.29

Sample 3 — method: protein binding microarray; molecule type: double-stranded DNA, one strand shown; medium: in vitro; tested at: not given; reference: not given; reading: higher = stronger binding
Target: Histone acetyltransferase KAT6A, winged helix 2, GST fusion (KAT6A, Homo sapiens, UniProt Q92794, residues 85-181)
Notes: 8-mer, flanks averaged, mean of 2 arrays, mostly near background
Residues (chain): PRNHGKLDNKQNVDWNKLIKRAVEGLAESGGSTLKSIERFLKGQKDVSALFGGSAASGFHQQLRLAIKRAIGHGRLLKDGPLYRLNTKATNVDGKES
Sequence | E-score
ACATAGCG | -0.0768
CTAACTTC | 0.208
CTAGGAGA | -0.0678
CGCGGTGC | 0.0743
GGGTGGAC | 0.0621
CTCCCTCC | 0.0758
CACCTCCA | 0.0494
GGGGTTCA | -0.199
CCGTTGAC | -0.197
CAGAGTAG | 0.0195
GGCCATAC | -0.0131
AGAAGGTA | 0.00137
ACTTGCTA | -0.0589
ACTCGGGC | 0.0571

Sample 4 — method: protein-binding microarray; molecule type: double-stranded DNA, one strand shown; medium: in vitro; tested at: 0.8 µM; notes: whole 60-bp probe, no competitor; reading: higher = stronger binding
Target: Centromere-binding protein 1, full length, N-terminal tag (CBF1, Saccharomyces cerevisiae, UniProt P17106, residues 1-351)
Chain of UniProt P17106 (whole entry, looked up): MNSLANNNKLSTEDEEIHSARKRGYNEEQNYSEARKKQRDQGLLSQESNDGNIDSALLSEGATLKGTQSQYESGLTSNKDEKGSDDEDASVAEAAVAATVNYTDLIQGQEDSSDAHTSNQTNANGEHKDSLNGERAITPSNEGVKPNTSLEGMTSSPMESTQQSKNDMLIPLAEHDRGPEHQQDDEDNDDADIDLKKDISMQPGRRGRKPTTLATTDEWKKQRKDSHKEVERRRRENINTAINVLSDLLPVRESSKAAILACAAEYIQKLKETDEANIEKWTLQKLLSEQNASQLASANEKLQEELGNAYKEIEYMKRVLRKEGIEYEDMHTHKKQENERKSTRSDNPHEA
Sequence | fluorescence intensity [a.u.]
CTACGATGTATTTACCACGATACTAGCTTTCATTTCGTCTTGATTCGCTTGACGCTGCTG | 542
GAAGAACGATACGCCCTCGTGTATATACAGTATTAGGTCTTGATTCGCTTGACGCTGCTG | 550
CTACGATTTGGTAATGCCGTGATGCAACCTCGATTCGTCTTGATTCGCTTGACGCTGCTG | 550
GAATTGTCATACTGACGTGTACCACTCTGAGAATAGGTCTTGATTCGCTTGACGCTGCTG | 574
CTATTGTGCGATCATCACCAAGATAACAAGAGATTCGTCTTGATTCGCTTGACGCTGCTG | 537
GAACAACCGGAAGGGGAGATCACAGACCTTGACTAGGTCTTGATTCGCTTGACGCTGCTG | 512
CTACATATCACTTAGTACGTGATAGTGCCCAAATTCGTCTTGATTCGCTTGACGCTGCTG | 601
GAATTTTGGTAAATCAACGTGCAGAAAAAATAATAGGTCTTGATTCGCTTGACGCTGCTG | 625
GAAATAAAAGAAAGCATCACCATGTAATGAAATTAGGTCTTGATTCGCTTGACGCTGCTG | 512
CTATTTTCTATAAGTAACATCAGCCCATCACCCTTCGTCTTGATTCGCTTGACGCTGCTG | 615
CTATCACACGTCCGTCATGTCTACTTTGAGTCATTCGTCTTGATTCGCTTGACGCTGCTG | 568
CTACACATGATTCACCTGATTACGACTCACTATTTCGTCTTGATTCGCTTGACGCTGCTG | 786
CTAAAACCCTACCGTCATCATATGAAATATCAATTCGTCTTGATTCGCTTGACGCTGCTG | 499
GAACAGTAAATTCATGATGTGCCTATGAATATGTAGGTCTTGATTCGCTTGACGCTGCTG | 506
GAATTTGTTATTGATCACGCCTTGTAGGGGAAATAGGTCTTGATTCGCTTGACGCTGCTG | 1470
